Results gathered from unrelated publications.
Numbered parts are unrelated; each lists some results of a single study. Changes are numbered by the printed parent chain.
Chain of UniProt O15294 (whole entry, looked up): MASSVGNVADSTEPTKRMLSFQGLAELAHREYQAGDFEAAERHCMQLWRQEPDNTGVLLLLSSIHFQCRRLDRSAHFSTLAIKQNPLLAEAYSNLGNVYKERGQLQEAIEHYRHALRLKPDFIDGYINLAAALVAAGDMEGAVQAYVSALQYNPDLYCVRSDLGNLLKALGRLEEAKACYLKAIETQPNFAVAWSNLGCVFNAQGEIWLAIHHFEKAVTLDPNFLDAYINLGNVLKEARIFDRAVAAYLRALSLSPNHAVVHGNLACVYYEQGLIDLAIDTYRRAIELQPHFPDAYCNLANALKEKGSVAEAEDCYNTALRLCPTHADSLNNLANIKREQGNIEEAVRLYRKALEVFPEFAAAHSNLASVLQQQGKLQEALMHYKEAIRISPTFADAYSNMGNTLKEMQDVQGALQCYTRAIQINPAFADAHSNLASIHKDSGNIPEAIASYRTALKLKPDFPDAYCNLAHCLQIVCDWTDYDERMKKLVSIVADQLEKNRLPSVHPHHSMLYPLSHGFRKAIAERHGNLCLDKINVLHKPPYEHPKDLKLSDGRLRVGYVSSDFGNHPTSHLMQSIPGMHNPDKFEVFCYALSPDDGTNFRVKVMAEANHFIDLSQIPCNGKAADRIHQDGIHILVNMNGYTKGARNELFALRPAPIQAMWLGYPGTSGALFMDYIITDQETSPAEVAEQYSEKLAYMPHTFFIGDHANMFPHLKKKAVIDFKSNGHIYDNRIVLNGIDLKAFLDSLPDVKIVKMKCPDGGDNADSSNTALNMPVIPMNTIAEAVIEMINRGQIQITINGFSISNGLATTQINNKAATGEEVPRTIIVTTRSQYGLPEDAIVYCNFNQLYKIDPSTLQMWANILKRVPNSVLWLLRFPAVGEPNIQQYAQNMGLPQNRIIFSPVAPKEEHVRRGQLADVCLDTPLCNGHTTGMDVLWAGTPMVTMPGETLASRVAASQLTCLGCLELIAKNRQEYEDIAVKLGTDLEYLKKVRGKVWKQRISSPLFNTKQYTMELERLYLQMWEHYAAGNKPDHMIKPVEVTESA

Sample 1
Target: NFE2, bZIP domain (human)
Method: DHFR protein complementation
Medium: yeast
Setting: single substitutions, most at no-binding floor
Reference: wild-type JUN-FOS pair
Reading: higher = stronger binding
Endpoint: binding fitness
Starting sequence: JUN, bZIP domain (human); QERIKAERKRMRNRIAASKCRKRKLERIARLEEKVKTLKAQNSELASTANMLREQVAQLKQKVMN; partner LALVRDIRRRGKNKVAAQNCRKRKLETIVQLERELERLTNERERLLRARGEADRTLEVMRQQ
K39I: -1.45 natural log
K39V: -1.47 natural log
A57T: -1.56 natural log
V56D: -1.48 natural log
E33N: -1.47 natural log
L38Y: -1.53 natural log
E44C: -1.23 natural log
I28F: -1.45 natural log

Sample 2
Target: Max-binding protein MNT, bHLH-zipper, MAX partner unstated (MNT, Homo sapiens, UniProt Q99583, residues 220-300)
Method: protein-binding microarray
Molecule type: double-stranded DNA, one strand shown
Medium: in vitro
Concentration: not given
Setting: k-mer, scored over probes, only values ≥0.25
Reading: higher = stronger binding
Endpoint: E-score
Residues (chain): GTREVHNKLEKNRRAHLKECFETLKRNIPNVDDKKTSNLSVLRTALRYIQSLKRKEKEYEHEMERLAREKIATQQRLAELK
ACGCTAAC: 0.308
CATGTTGC: 0.365
CGCCGCGC: 0.288
ATGTCACG: 0.35
CATGCCCC: 0.342
CACGTCCA: 0.267
CCATGGGG: 0.319
CCCGTGTA: 0.282

Sample 3
Target: Sal-like protein 4, full length isoform B (SALL4, Homo sapiens, UniProt Q9UJQ4-2, residues 1-616)
Method: universal PBM
Molecule type: double-stranded DNA, one strand shown
Medium: in vitro
Concentration: not given
Setting: 8-mer, flanks averaged, mean of replicates
Reading: higher = stronger binding
Endpoint: E-score
Construct (chain): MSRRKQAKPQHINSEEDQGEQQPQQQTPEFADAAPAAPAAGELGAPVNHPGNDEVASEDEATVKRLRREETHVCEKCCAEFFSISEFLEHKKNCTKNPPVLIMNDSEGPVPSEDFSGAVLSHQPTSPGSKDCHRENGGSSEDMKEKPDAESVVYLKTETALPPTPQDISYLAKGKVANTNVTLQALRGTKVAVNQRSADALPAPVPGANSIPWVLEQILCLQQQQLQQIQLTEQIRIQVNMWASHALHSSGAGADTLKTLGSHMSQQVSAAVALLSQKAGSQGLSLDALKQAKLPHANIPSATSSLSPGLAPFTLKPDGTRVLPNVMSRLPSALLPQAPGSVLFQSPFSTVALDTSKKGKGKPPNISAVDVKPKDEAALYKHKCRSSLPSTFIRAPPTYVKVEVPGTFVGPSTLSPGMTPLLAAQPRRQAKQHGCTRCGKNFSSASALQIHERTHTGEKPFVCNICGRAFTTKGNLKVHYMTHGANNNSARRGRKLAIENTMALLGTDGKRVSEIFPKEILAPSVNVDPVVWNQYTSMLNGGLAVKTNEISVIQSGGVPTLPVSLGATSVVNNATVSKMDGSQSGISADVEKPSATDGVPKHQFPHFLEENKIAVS
CCGCCACG: -0.138
AACATGAC: 0.0302
ACACAACG: 0.166
GCTATAGC: 0.0484
AAAGAGAA: 0.131
CTGTGAGC: -0.0813
CCCTTTCA: -0.0311
CCACAGAA: 0.0302

Further values, each from its own experiment
HRQHHVTDSMNPYRT  enrichment fold change (UDP-N-acetylglucosamine--peptide N-acetylglucosaminyltransferase 110 kDa subunit (OGT, Homo sapiens, UniProt O15294); binding, phage display NGS; peptide; concentration not given; reference: input library): 5.16
